Measurements from different studies.
Lines come from different studies, so protocols differ.

| SMILES | system | conditions | AUC |
| --- | --- | --- | --- |
| C/C(=C\c1csc(C)n1)[C@@H]1C[C@@H]2O[C@]2(C)CCC[C@H](C)[C@H](O)[C@@H](C)C(=O)C(C)(C)[C@@H](O)CC(=O)N1 | human patients, plasma | intravenous, 15 mg/m2, cycle 1 day 1, A | 682 ng·h/mL |
| C[C@@H](c1ccc2nccn2c1)n1nnc2ncc(-c3cnn(C)c3)nc21 | human, plasma | oral, 300 mg, cycle 1 day 1, single dose | 10200 ng·h/mL |
| Cc1cc(-c2nccc3c2ccn3CC(=O)Nc2ccc(-c3cnccn3)cn2)ccn1 | human, plasma | oral, 40 mg single dose, geometric mean | 3.12 µM·h |
| N#Cc1cc(NC(=O)[C@H]2c3ccccc3C(=O)N(CC(F)(F)F)[C@@H]2c2cccnc2)ccc1F | human, plasma | oral, 600 mg, fed, median, interim | 23500 ng·h/mL |
| O=C(COc1ccc(Cl)cc1)NC12CC(c3nnc([C@H]4C[C@@H](OC(F)(F)F)C4)o3)(C1)C2 | healthy human volunteers fasted, plasma | oral, 15 mg single dose, geometric mean | 14.2 µM·h |
| C=CC(=O)N(C)CCOc1c(N)ncnc1-c1cc(F)cc(NC(=O)c2ccc(C3CC3)cc2F)c1C | human, plasma | oral, 1.5 mg single dose | 0.315 ng·h/mL |
| Cc1ccc(C(=O)NC2CC2)cc1-n1ncc(C(=O)c2cccc(C#N)c2)c1N | healthy human | oral, 50 mg single, mean | 24900 ng·h/mL |
| COc1ccc2[nH]c([S@+]([O-])Cc3ncc(C)c(OC)c3C)nc2c1 | human, dried blood spots | oral, 10 mg omeprazole, control arm | 167 ng·h/mL |
| CC#CC(=O)N1CCC[C@H]1c1nc(-c2ccc(C(=O)Nc3ccccn3)cc2)c2c(N)nccn12 | human, plasma | oral, dose not given, 50 mg twice daily dosing, added: itraconazole 200 mg | 1240 ng·h/mL |
| COc1cc2nccc(Oc3ccc(NC(=O)C4(C(=O)Nc5ccc(F)cc5)CC4)cc3)c2cc1OC | human patients with toxicity, plasma | oral, dose not given, median | 28600 ng·h/mL |
| Cn1cnc2c(F)c(Nc3ccc(Br)cc3Cl)c(C(=O)NOCCO)cc21 | human ESRD on haemodialysis | oral, 50 mg, before dialysis | 1560 ng·h/mL |
| CCN(CC)CCNC(=O)c1c(C)[nH]c(/C=C2\C(=O)Nc3ccc(F)cc32)c1C | human patients, plasma | oral, dose not given, cycle 1 day 1 | 2980 ng·h/mL |
| CNC(=O)n1ccc2cc(Oc3ccnc(NC(=O)c4ccc(C5CCN(CCO)CC5)cc4)c3)c(OCCOC)cc21 | healthy human, plasma | oral, 35 mg, geometric mean, 0-72 h, alone | 100 ng·h/mL |
| N[C@@H](CC(=O)N1CCn2c(nnc2C(F)(F)F)C1)Cc1cc(F)c(F)cc1F | human | dose not given, alone | 3210 ng·h/mL |
| COc1ccnc(C[S+]([O-])c2nc3ccc(OC(F)F)cc3[nH]2)c1OC (centres unmarked) | human, plasma | intravenous, dose not given, median | 5700 ng·h/mL |
| C#C[C@]1(O)CC[C@H]2[C@@H]3CCC4=CC(=NO)CC[C@@H]4[C@H]3CC[C@@]21CC (mixture of isomers) | human | dose not given, alone | 17.9 ng·h/mL |
| COC(=O)N[C@H](C(=O)N1CCC[C@H]1c1ncc(-c2cc(F)c3c(c2)O[C@@H](c2cnc(C4CC4)s2)n2c-3cc3cc(-c4cnc([C@@H]5CCCN5C(=O)[C@@H](NC(=O)OC)C(C)C)[nH]4)ccc32)[nH]1)C(C)C | healthy adult humans, plasma | oral, 180 mg once daily, day 6, fasted, steady state, alone | 3300 ng·h/mL |

A few entries again:
| SMILES | system | conditions | AUC |
| --- | --- | --- | --- |
| N[C@@H](CC(=O)N1CCn2c(nnc2C(F)(F)F)C1)Cc1cc(F)c(F)cc1F | human | dose not given, alone | 3210 ng·h/mL |
| C=CC(=O)N(C)CCOc1c(N)ncnc1-c1cc(F)cc(NC(=O)c2ccc(C3CC3)cc2F)c1C | human, plasma | oral, 1.5 mg single dose | 0.315 ng·h/mL |
